Values quoted from earlier work, collected from citations in different studies.
Compare with care: the assays were run in different laboratories. Numbers after ± are the reported error.
Sequence of UniProt Q01827 (whole entry, looked up): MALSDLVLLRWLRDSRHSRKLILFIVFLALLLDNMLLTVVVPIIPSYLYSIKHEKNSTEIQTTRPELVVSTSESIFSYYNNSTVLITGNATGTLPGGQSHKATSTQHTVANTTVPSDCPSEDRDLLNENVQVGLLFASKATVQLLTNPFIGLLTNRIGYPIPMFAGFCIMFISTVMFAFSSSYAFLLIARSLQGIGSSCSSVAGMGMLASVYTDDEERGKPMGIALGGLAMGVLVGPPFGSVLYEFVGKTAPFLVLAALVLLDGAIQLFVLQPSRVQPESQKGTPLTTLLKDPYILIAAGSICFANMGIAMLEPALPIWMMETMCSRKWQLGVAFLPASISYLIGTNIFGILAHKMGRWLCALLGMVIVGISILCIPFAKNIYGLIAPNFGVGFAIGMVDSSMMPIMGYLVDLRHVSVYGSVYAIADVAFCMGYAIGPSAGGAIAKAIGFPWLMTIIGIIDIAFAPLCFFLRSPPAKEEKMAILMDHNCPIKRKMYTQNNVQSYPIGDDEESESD
Sequence of UniProt Q9JI35 (whole entry, looked up): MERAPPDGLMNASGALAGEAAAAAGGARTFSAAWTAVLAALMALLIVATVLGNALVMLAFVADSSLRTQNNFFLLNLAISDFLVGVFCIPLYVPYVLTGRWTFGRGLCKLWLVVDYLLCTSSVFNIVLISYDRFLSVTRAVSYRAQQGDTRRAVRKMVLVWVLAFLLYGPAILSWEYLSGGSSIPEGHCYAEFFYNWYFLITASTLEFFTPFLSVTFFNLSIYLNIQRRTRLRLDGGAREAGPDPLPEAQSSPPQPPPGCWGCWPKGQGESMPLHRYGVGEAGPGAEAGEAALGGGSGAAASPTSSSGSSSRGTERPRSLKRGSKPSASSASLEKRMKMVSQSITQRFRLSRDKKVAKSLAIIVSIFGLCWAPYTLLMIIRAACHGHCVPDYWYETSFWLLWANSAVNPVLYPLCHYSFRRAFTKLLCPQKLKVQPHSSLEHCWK
Sequence of UniProt P47898 (whole entry, looked up): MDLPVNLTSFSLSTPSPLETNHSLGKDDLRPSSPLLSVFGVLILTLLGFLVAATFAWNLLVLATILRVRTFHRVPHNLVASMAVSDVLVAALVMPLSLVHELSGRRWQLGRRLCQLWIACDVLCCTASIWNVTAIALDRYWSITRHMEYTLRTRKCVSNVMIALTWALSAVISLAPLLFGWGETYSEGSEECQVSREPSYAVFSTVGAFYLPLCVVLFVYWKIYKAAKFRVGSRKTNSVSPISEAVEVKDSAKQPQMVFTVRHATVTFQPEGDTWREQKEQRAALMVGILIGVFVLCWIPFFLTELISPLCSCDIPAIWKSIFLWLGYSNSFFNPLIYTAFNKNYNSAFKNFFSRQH

For `Nc1ncnc2c1nc(Br)n2C1OC2COP(O)(=S)OC2C1O` (centres unmarked), “Km or Ki” read 23300 nM (PDE2A; cyclic nucleotide hydrolysis, substrate or inhibitor, isothermal titration calorimetry).
`COC(=O)Nc1nc2cc(C(=O)c3ccc(F)cc3)ccc2[nH]1` has a plasma level of 270 ng/mL (Wistar rat, plasma; oral, 10 mg/kg).
For `CC(N)Cc1ccc2c(c1)OCO2` (centres unmarked), the Tmax was 4.6 to 5.9 h (healthy human subjects; oral, dose not given).
`COc1nc2ccc(Br)cc2cc1[C@@H](c1ccccc1)[C@@](O)(CCN(C)C)c1cccc2ccccc12` has a fraction unbound of < 0.01% (THP-1 foamy macrophage matrix; 5 µM, 4 h, 37 °C).
`CNCC1CCCCC1(O)c1cccc(OC)c1` (centres unmarked) gave a urinary excretion of > 10% (human, urine; oral, dose not given, after tramadol dosing; relative to: dose).
For `COC1C2OP(O)(=S)OCC2OC1n1c(Sc2ccc(Cl)cc2)nc2c(N)ncnc21` (centres unmarked), “Km or Ki” read 820 nM (PDE4D; cyclic nucleotide hydrolysis, substrate or inhibitor, isothermal titration calorimetry).
With `NNC(=O)c1ccncc1` the fraction unbound was > 99.9% (THP-1 foamy macrophage matrix; 5 µM, 4 h, 37 °C).
The AUC(0-12h) of `Cc1ncc2n1-c1ccc(Cl)cc1C(c1ccccc1F)=NC2` is reported as 0.0617 µM·h (human; oral, 2.5 mg, single agent, geometric mean).
`C=CCN(CC=C)CCc1c[nH]c2ccc(F)cc12` gave a Ki of 2090 nM (Histamine H3 receptor (Cavia porcellus, UniProt Q9JI35)).
With `CC(=O)NC[C@H]1CN(c2ccc(N3CCOCC3)c(F)c2)C(=O)O1` the unbound fraction was 29.3 ± 3.6% (caseum; 5 µM, 4 h, 37 °C).
With `COc1ccc(CN(C(=O)[C@@H](N)Cc2c(C)cc(C(N)=O)cc2C)[C@@H](C)c2nc(-c3ccccc3)c[nH]2)cc1C(=O)O` the total clearance was 171 mL/min (dog; intravenous, 2 mg/kg, body weight 8.6 kg).
`COc1ccc2c3c1O[C@H]1C(=O)CC[C@@]4(O)[C@@H](C2)NCC[C@]314`: Cmax “increased” (patients with hepatic or renal impairment, plasma; dose not given).
For `COc1cccc(C2(O)CCCCC2CN(C)C)c1` (centres unmarked), the Cmax was 1900 nM (plasma; concentration not given).
With `CO[C@H]1/C=C/O[C@@]2(C)Oc3c(C)c(O)c4c(O)c(c(/C=N/N5CCN(C)CC5)c(O)c4c3C2=O)NC(=O)/C(C)=C\C=C\[C@H](C)[C@H](O)[C@@H](C)[C@@H](O)[C@@H](C)[C@H](OC(C)=O)[C@@H]1C` the unbound fraction was 5.13 ± 0.2% (caseum; 5 µM, 4 h, 37 °C).
`N[C@@]1(c2ccccc2Cl)CCC[C@@H](O)C1=O`: activity “inactive” (muscarinic receptors; binding, competitive binding screen; concentration not given).
For `NC(=O)c1ccc2c(c1O)[C@]13CCN(CC4CC4)[C@H](C2)[C@]1(O)CCC(=O)C3`, “decrease in Cmax” read 44% (healthy subjects; dose not given, added: rifampin 600 mg/day).
The Ki of `CN1C/C(=C\c2ccc(Cl)cc2Cl)C/C(=C/c2ccc(Cl)cc2Cl)C1` is reported as 320 nM (Slc18a2 (Rattus norvegicus, UniProt Q01827); substrate site binding).
The Tmax of `CNC(C)Cc1ccc(O)c(OC)c1` (centres unmarked) is reported as 2.7 to 5 h (healthy human subjects; oral, dose not given).
`C[C@]12CCC(=O)CC1=CC[C@@H]1[C@@H]2CC[C@]2(C)C(=O)CC[C@@H]12` gave a Km of 17.1 ± 3.1 µM (ketosteroid isomerase Y14F; substrate; pH 7.0, 3.3 % methanol).
`CC(=O)NC[C@H]1CN(c2ccc(N3CCSCC3)c(F)c2)C(=O)O1` gave an unbound fraction of 30.1 ± 8.7% (caseum; 5 µM, 4 h, 37 °C).
For `COc1ccc2c3c1O[C@H]1C(=O)CC[C@@]4(O)[C@@H](C2)N(C)CC[C@]314`, the drug liking-disliking was 21 (human drug abusers; oral, 15 mg, peak, 100-point scale, unit not given; relative to: placebo).
`O=C([C@@H](O)CO)N1CC=C(c2c(F)cc(N3C[C@H](COc4ccon4)OC3=O)cc2F)CC1` gave an unbound fraction of 10.7 ± 1.7% (caseum; 5 µM, 4 h, 37 °C).
`CN(C)C[C@H]1CCCC[C@]1(O)c1cccc(O)c1` gave a urinary excretion of > 10% (human, urine; oral, dose not given, after tramadol dosing; relative to: dose).
For `CCCN(CCC)C(=O)Cc1c(-c2ccc(Cl)cc2)nc2ccc(Cl)cn12`, the Cmax was 300 nM (plasma; concentration not given).
For `C=CCN(CC=C)CCc1c[nH]c2ccccc12`, the Ki was > 10000 nM (HTR5A (Homo sapiens, UniProt P47898); binding, [3H]LSD displacement).
`CCCCCn1cc(C(=O)c2cccc3ccccc23)c2ccccc21` — result for “parent drug in urine”: “not detected” (human smokers, urine).
For `COc1cccc(C2(O)CCCCC2CN(C)C)c1` (centres unmarked), “urinary excretion unchanged” read 12 to 32% (human, urine; oral, dose not given; relative to: dose).
With `C[C@]1(COc2ccc(N3CCC(Oc4ccc(OC(F)(F)F)cc4)CC3)cc2)Cn2cc([N+](=O)[O-])nc2O1` the unbound fraction was 0.04 ± 0.02% (caseum; 5 µM, 4 h, 37 °C).
For `CCC1(c2ccccc2)C(=O)NC(=O)NC1=O`, “therapeutic plasma concentration” read 15 to 40 µg/mL (human, plasma; total concentration, therapeutic range).

A few entries again:
For `Nc1ncnc2c1nc(Br)n2C1OC2COP(O)(=S)OC2C1O` (centres unmarked), “Km or Ki” read 23300 nM (PDE2A; cyclic nucleotide hydrolysis, substrate or inhibitor, isothermal titration calorimetry).
`COC(=O)Nc1nc2cc(C(=O)c3ccc(F)cc3)ccc2[nH]1` has a plasma level of 270 ng/mL (Wistar rat, plasma; oral, 10 mg/kg).
